Results of several laboratories.
Every numbered part comes from another study and shows a few of its results, in no order. Positions count from the first letter of the parent shown.

Set 1 — target: CEP164, C-terminal peptide (human); method: DHFR complementation, deep sequencing; matrix: yeast; baseline: wild type; reading: higher = weaker binding
Setting: single substitutions, model-inferred values
Starting sequence: PDZK1, PDZ domain 2 (human); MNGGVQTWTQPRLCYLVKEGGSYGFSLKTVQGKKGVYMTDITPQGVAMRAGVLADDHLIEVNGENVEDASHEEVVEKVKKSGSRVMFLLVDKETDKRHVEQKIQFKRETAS; partner HNRVKVYRF
Substitution	binding free energy change [kcal/mol]
D56F	0.626
K33G	0.437
K34Y	0.479
D95G	-0.115
Q10H	0.0127
T94R	0.0193
T109L	-0.138
R97M	-0.157

Set 2 — method: RNA Bind-n-Seq; form: RNA; matrix: in vitro; concentration: 200 nM; setting: whole 134-nt RNA, ends assumed; with: 150 mM LiCl; baseline: input library; reading: higher = stronger binding; all molecules: 7-deaza-guanosine replaces G
Target: Fragile X messenger ribonucleoprotein 1, C-terminal low-complexity region (Fmr1, Mus musculus, UniProt P35922)
Shared flanks, not repeated: GGGAGUUCUACAGUCCGACGAUC … UGGAAUUCUCGGGUGUCAAGG
Strand	log2 enrichment
GUCCUGUGCUACACAUCGUAUGUACCGAAUCAAAUUUUUAAACCCAAACCCCCCCAAAAAAGUAUUAUGUUACGCCGUUCGGAUCUGCAC	1.19
GCAGGAAGUAAAAACAAAUGGAAAUGCUUCGGAUAGUGGCAGGGGUAAAGGUUGCUAAGGAAAGGGUGGGAUGGGAGUGGGUAAAGAGUU	1.76
UGGGAGGUGGAUUUUGUUUAUUUUUUUAGCUCAUUUCCAGGGGUGGGAAUUUUUUUUUAAUAUGUCUCAUGAAUAAAGUUGUUUUUGAAA	-0.656
ACCAUGCAGGUGGGCAUCUUUGGGAAGUGGGGCAAGGGGCGGAUAGGGAGGGGGGUAACACUUUGGGAACAGGUGGUCCCAGGUCGUUUC	0.96
UGUGCUACACAUCGUAUGUACCGAAUCGGGGCCCCCCCGGGCCCCCCCGGGGCCCCCCCGGGAAAGUAUUAUGUUACGCCGUUCGGAUCU	-1.71
CCUCAAGUCCUGUGCUACACAUCGUAUGUACCGAAUCGGAAAAAGGAGGUGGAAAGUAUUAUGUUACGCCGUUCGGAUCUGCACUUCCAG	-0.126
CCUGUGCUACACAUCGUAUGUACCGAAUCGGAAAAAAAGGGGAAAAAAAGGGAAAAAAAGGAAAGUAUUAUGUUACGCCGUUCGGAUCUG	-0.101
CUCAAGUCCUGUGCUACACAUCGUAUGUACCGAAUCGGAAGGGAAGGAAGGGGAAAGUAUUAUGUUACGCCGUUCGGAUCUGCACUUCCA	-0.112

Other studies, line by line
P1: PafA, mature enzyme, eGFP fusion (Elizabethkingia meningoseptica, UniProt Q9KJX5); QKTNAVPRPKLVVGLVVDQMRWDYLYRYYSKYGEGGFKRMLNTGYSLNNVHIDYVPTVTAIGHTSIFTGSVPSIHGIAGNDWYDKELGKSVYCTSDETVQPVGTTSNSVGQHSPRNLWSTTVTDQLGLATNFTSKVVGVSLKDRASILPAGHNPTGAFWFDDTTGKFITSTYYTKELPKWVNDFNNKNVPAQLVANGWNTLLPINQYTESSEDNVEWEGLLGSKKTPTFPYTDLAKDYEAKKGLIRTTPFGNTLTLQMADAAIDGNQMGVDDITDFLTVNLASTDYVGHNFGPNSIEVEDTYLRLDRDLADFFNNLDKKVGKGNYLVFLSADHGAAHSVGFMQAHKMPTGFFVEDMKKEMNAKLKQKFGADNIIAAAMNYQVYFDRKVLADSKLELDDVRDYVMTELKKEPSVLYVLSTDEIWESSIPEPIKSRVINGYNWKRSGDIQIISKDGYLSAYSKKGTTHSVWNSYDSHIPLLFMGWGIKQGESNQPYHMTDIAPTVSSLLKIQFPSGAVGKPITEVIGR
Molecule	target or system	test	test system	setting	how to read	endpoint	result
SART1 (Homo sapiens, UniProt O43290)	PRPF8 (Homo sapiens, UniProt Q6P2Q9)	cross-linking MS	cells	with: BSPNO	–	cross-linked residues	K662 to K1344
P1 R386G	tungstate, free oxyanion	microfluidic competitive inhibition	in vitro, cell-free expressed	not given, derived from inhibition constants, unchanged parent 2230 nM	lower = stronger binding	oxyanion analog dissociation constant	2.48 µM

Excerpt of the above (set 1):
Substitution	binding free energy change [kcal/mol]
K33G	0.437
D56F	0.626
